Experimental data of several laboratories.
Each numbered part is a random draw from the data of one study; scales do not carry over between parts. Positions count from the first letter of the parent shown.

Study 1
Target: ABI1, truncated, D143A, DHFR fusion (Arabidopsis thaliana)
Technique: DHFR PCA, deep sequencing
Sample: yeast
Setting: methotrexate growth selection, single substitutions
With: (+)-ABA 0 µM
Reference: wild-type fitted maximum
Reading: higher = stronger binding
Parent: PYL1, truncated, DHFR fusion (Arabidopsis thaliana); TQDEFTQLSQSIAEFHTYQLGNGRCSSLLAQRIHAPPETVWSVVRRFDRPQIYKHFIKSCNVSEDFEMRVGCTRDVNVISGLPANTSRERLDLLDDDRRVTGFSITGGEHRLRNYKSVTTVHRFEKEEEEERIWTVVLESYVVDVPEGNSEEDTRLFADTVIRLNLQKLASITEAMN
Variant	relative binding score [%]
V121I	9.37
R46F	-6.86
G23D	7.13
N177A	51.6
P83A	21.3
I162D	9.4
R46W	-2.03
R111W	6.78
P37G	-1.27
L82E	1.38
M176E	6.88
H55Y	10.1
K168S	12.4
L82H	29.8
T160L	4.24
I133K	17.6

Study 2
Target: Ras GTPase-activating protein-binding protein 1, RRM domain (G3BP1, Homo sapiens, UniProt Q13283)
Chain of UniProt Q13283 (whole entry, looked up): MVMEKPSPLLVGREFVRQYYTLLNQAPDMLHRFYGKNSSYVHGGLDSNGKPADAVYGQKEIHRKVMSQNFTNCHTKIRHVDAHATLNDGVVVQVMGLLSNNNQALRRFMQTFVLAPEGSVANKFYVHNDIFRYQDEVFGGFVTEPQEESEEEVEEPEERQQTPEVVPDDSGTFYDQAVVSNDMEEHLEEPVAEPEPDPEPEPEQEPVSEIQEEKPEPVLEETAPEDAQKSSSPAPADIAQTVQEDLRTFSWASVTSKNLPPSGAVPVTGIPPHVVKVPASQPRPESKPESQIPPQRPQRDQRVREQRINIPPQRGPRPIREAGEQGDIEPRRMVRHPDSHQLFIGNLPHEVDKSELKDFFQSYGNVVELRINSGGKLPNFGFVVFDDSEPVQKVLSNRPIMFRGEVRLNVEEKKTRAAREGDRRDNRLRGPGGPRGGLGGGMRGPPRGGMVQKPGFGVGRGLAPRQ
Technique: RNA Bind-n-Seq
Molecule type: RNA
Sample: in vitro
Concentration: 1 µM
Setting: whole 134-nt RNA, ends assumed
With: 150 mM KCl
Reference: input library
Reading: higher = stronger binding
Sequence	log2 enrichment
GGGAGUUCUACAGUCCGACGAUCUCCUCAAGUCCUGUGCUACACAUCGUAUGUACCGAAUCGGAGGGAGGGGAGGAAAGUAUUAUGUUACGCCGUUCGGAUCUGCACUUCCAGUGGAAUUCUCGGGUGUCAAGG	-0.169
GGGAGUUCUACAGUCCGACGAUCACCAUGCAGGUGGGCAUCUUUGGGAAGUGCGGCAAGGGGGGGAUAGGGAGGGGGGUAACACUUUGGGAACAGGUGGUCCCAGGUCGUUUCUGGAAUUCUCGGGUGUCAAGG	-0.516
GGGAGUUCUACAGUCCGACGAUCACCAUGCAGGUGGGCAUGUUUGGGAAGUGGGGCAAGGGGGGGAUAGGGAGGGGGGUAACACUUUGGGAACAGGUGGUCCCAGGUCGUUUCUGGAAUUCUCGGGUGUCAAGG	-0.421
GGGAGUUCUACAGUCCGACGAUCACCAUGCAGGUGGGCAUCUUUGGGAAGUGGGGCAAGGGGGGGAUAGGGAGGGGGGUAACACUUUGGGAACAGGUGGUACCAGGUCGUUUCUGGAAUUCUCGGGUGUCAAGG	1.3
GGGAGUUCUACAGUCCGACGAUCAAGUCCUGUGCUACACAUCGUAUGUACCGAAUCGGUUUUUGGUUUUUGGUUUUUGGGAAAGUAUUAUGUUACGCCGUUCGGAUCUGCACUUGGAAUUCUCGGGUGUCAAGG	-0.143
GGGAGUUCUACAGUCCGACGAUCGCAGGAAGUAAAAACAAAUGGAAAUGCUUCGGAUAGUGGCAGGGGUGGGGGUUGCUAAGGAAACGGUGGGAUGGGAGUGGGUAAAGAGUUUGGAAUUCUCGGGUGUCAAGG	0.818
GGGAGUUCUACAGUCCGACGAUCACCAUGCAGGUGGGCAUCUUUGGGAAGUGGGGCAAGGGAGGGAUAGGGAGGGGGGUAACACUUUGGGAACAGGUGGUCCCAGGUCGUUUCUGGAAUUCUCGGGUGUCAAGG	-0.607
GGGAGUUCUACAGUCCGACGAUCUAUUGAUGCAUUUGACCCUACACUGGCUCCAGCCACAGGAACUCCUGUUGUCGGGGGACUAACCUAUCGAGAAGGCAUGUAUAUUGCUGAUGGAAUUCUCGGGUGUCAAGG	-0.202
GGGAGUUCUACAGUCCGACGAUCGUCCUGUGCUACACAUCGUAUGUACCGAAUCAAAUUUAAAUUUUUAAAUUUUUUUAAAAAAGUAUUAUGUUACGCCGUUCGGAUCUGCACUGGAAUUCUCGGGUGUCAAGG	-0.759
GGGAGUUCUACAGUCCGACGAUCUAAGUUUAGAGGAGGAUCUGAUGGAUAUGGCAGUGGACGUGGAUUUGGGGAUGGCUAUAAUGGGUAUGGAGGAGGACCUGGAGGUGGCAAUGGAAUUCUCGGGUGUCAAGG	-0.347

Study 3
Target: CCNE2, cyclin fold, Cln2 fusion (human)
Technique: yeast growth competition, sequencing
Sample: yeast
Setting: strong parent motif
Reference: not given
Reading: higher = stronger binding
Parent: RBL2 docking peptide (human); STTRRRLFVENDS; partner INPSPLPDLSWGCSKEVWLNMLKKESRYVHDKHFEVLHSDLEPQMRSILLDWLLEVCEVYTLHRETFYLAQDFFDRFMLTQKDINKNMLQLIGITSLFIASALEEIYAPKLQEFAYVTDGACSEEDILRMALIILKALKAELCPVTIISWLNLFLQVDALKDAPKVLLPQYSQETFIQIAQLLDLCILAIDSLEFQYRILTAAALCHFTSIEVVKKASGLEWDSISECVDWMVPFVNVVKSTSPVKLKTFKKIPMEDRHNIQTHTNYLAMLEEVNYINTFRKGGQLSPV
Variant	normalised enrichment score
T3E	0.92
E10I	1.45
R5H	0.886
S13Q	3.37
L7T	0.494
R5D	-0.0423
R5Q	0.722
T3C	6.06
S13C	4.12
S13M	4.11
L7P	0.68
V9A	4.22
R6V	2.51
L7F	0.0304
S13R	4.36
E10L	1.78
V9L	3.15
V9M	4.22
T2E	3.85
F8E	0.404
N11V	4.24
R4P	0.136
N11W	4.22
R4D	-0.975
F8G	-0.111

Study 4
Target: RING finger protein unkempt homolog, zinc fingers 1-6, GST-SBP tag (UNK, Homo sapiens, UniProt Q9C0B0, residues 30-357)
Technique: RNA Bind-n-Seq
Molecule type: RNA
Sample: in vitro
Concentration: not given
Setting: RNA with constant flanks, human-mouse chimeric sites, ends assumed
Reference: input RNA pool
Reading: higher = stronger binding
Residues (chain): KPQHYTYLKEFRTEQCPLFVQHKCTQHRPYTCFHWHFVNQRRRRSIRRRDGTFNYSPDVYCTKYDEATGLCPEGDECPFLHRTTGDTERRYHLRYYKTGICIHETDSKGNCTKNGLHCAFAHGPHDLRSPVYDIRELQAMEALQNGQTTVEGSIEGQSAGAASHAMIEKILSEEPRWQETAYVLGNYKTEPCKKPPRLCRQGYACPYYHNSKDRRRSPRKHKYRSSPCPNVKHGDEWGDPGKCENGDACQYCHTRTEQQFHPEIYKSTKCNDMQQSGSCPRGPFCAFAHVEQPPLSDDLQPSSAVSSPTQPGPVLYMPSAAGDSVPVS
Sequence	bound/input enrichment [ratio]
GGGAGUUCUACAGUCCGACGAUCUAACCACAUCAAGAUGGUUGGGAAGCUGAAGCAGAACUUACUCUUGGCGUGUCUGGUGAUUAGUUCUGUGACCGUGUUUUACCUGGGCCAGCAUGCCAUGGAAUGCCAUCACCGGAUAGACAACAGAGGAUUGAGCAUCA	0.187
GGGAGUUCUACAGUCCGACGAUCGGACAUCUGUCAAAUUGUUAUGUUCCUGUGAAACAAGUGAACACUCUGAUACACUUCAUCUGCUUGUACAUUUAACUGAUAGAGAAAUGUAAAUAUGUUAAUCCAAGAUGAAUUCAACUUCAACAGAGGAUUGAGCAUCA	0.21
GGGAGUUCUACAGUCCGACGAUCGGCUGCUGGUGACUGUCCUGGAGUGGCCGUGUCACCGGCCGGAGCGCGGCCAGACUAAUUUUAGAAAAUGCCAAGUAGGAAGUUUGUUGAGGGUGAAGUGGUCAGAGGCCGAUGGCCUGGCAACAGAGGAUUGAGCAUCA	5
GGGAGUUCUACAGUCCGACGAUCGGGACUGAUUCAUUCCAAGGACAGGCCACCCCAUUUGAUGCCUGGACUGAUGACAGUAUGGAAGGGCCUAGUCAAAAUGUUGAAGCUGAGUCAAUUCAGGAUGCCAUGAGUAUGGAAGAGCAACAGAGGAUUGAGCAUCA	0.421
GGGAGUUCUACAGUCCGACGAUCGAAUCCUACUCAGGCGGAUUUUGCAACACCAAGCUCACAGCAGCAGCAUCUUAGUCACAGUAGGGUAGUUUUGGGGCAAUAUUGCCAUGGUUUUACUCACAUGCAGGUUUGGAAAAUGUACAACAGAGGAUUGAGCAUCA	1.08
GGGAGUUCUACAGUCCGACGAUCGGCUGCUACUAUUCUCCCUGGAGUGGCUGGAGUUCCCCCGGAACCUGGGCCAGACUAAUUUUAGAAAAUGCCAAGUAGGAAGUUUGUUGAGGGUGAAGUGGUCAGAGGCCGAUGGCCUGGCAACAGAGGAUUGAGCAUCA	5.97
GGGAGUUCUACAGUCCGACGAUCAUCAAAUACUUUGGGGACAUCAUUAGUGUGGGACAGAGACUGUUGCAAGGGGCCCGGAUCUUAGGGAUUCCAGUUAUCAUAACGGAACAAUACCCCAAAGGACUUGGGAGCACGGUUCAACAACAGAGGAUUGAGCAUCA	0.302
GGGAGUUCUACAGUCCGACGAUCCUGUGACCACAAGAUCCUACCUGAGUGUUCAGAUGGGCACUUUUCUUCUCCUUGCCUGAACCCCCCCCCACUGCCCCCCCAUCCCCCAGUGUCGGCUGAGAUGUUGCCUCUGCACGGUUCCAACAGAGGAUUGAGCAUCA	1.32
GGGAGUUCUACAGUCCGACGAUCUCGGAUGCUGUGCUGGGUCACUUUCCGUAUCCAGAUCCUUCACAGUGGACAGAUGAAGAACUGGGAAUCCCUCCUGAUGACGAGGACUGAAGGUGUAAACUCUCUGGACGAGUAGGAGCACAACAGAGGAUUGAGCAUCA	0.481
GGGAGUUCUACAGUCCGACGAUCAUGGAAAAGGAUUCUCUGCCUCGCUUUGUGCGCUCUGAAUUUUAUAAGGAGCUAAUCAAGUAGUCAUCUGGUCAGGCUUCCAAAAGUUGCCCUGUGAGUUGAGUUACAUCCUUUGUAGCACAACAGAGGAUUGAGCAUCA	0.216
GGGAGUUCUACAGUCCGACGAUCGUUGCCAGGUUCCGGUGCCGUUGGGCUCGGUUCUCUCCUGAGCUACGUGUCUCUACGCUCUCAAUCCGCCAUCCAACAAACAUGGAUCAGGUAAUGCAGUUUGUGGAGCCCAGCCGGCAGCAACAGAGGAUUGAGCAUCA	0.0697

Repeated from above (study 3):
Variant	normalised enrichment score
R5H	0.886
S13Q	3.37
L7T	0.494
R5D	-0.0423
R5Q	0.722
T3C	6.06
